Measurements from different studies.
Numbers after ± are the reported error.
F-box only protein 22: F-box only protein 22 (Homo sapiens, UniProt Q8NEZ5)
UniProt Q8NEZ5, sequence (whole entry, looked up): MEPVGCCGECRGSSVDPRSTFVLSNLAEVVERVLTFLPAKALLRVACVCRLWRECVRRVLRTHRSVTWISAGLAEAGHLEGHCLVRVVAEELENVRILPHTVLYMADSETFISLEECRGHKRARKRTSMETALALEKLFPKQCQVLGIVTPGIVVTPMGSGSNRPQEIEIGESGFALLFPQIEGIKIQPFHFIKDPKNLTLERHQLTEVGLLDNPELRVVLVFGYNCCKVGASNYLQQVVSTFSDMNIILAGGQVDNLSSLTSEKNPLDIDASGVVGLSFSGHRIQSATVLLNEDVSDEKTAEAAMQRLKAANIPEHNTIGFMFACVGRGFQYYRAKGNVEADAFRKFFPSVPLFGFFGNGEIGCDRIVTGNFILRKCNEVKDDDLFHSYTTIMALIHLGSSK
YWHAZ: 14-3-3 protein zeta/delta (YWHAZ, Homo sapiens, UniProt P63104)
UniProt P63104, sequence (whole entry, looked up): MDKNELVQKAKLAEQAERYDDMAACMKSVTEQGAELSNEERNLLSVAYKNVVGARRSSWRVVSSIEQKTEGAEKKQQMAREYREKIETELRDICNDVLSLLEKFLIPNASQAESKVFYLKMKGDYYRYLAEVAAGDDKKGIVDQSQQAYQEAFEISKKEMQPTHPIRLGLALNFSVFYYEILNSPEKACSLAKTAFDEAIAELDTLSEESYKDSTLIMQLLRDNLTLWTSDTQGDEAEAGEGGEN
LRP6 E1 domain: Low-density lipoprotein receptor-related protein 6, E1 domain (LRP6, Homo sapiens, UniProt O75581)
UniProt O75581, sequence (whole entry, looked up): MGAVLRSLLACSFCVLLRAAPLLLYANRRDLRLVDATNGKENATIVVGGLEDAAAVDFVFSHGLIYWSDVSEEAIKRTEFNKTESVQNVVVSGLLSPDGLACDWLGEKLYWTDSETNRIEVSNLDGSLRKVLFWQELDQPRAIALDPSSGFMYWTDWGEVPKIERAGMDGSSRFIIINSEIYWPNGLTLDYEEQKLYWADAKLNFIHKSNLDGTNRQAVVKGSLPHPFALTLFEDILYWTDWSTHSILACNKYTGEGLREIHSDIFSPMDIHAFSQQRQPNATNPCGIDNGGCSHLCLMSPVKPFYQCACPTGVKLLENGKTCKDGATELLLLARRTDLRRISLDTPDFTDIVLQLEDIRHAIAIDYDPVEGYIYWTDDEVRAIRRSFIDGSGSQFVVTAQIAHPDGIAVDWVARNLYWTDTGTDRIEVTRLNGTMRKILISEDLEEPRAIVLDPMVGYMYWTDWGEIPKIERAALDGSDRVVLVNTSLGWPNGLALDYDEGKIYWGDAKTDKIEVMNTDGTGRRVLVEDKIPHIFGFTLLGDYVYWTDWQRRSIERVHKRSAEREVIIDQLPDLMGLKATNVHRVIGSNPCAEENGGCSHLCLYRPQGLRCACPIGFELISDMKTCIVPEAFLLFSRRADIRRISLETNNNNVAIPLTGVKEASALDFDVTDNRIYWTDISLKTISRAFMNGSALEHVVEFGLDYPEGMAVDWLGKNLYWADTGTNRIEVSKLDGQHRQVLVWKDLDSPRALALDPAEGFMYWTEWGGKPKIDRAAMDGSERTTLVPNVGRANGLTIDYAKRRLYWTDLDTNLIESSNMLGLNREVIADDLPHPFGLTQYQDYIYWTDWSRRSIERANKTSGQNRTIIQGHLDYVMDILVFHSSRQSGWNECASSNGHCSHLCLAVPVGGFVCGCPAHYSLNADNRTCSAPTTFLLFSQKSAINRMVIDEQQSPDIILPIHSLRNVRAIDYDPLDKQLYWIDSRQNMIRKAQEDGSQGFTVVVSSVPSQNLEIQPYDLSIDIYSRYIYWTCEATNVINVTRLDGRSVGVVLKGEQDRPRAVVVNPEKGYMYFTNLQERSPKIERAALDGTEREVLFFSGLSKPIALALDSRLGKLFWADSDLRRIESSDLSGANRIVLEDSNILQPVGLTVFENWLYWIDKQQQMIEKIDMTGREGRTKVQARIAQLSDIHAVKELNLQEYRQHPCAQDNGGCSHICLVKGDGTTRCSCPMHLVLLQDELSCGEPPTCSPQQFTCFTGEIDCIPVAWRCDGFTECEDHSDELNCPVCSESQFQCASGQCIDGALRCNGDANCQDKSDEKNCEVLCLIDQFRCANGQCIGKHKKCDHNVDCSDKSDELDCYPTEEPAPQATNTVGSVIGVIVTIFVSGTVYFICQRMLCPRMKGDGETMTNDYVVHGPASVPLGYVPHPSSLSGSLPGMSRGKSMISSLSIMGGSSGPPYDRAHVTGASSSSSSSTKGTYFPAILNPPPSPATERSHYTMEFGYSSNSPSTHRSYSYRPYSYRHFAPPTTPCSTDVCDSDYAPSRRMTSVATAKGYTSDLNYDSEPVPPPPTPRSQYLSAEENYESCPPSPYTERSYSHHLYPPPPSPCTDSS
UniProt P97287, sequence (152-308, looked up): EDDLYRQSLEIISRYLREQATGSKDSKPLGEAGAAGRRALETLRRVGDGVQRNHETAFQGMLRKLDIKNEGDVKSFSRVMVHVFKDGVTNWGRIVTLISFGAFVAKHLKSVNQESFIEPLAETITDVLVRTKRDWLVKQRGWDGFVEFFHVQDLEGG
UniProt P31947, sequence (whole entry, looked up): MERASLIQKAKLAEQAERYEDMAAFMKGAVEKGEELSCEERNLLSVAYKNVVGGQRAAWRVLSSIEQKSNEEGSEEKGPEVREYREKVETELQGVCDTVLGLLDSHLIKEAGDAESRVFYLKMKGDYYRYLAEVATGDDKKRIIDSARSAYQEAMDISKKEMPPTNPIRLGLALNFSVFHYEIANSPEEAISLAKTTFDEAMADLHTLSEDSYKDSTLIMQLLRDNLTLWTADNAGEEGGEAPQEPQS
UniProt P30048, sequence (whole entry, looked up): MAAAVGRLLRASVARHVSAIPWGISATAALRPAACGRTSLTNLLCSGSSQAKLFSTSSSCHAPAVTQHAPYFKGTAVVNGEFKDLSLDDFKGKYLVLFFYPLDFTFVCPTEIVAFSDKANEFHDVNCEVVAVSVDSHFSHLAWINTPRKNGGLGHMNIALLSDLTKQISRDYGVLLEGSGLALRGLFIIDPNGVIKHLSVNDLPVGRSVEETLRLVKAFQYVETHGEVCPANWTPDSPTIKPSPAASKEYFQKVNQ
UniProt P40261, sequence (whole entry, looked up): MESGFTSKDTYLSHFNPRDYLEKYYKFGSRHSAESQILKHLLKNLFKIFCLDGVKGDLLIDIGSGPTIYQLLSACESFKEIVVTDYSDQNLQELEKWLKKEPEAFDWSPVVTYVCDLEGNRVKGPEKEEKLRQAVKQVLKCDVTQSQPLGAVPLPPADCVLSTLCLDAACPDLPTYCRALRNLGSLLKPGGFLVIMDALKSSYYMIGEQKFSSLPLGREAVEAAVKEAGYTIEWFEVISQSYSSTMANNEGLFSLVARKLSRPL
UniProt Q14145, sequence (whole entry, looked up): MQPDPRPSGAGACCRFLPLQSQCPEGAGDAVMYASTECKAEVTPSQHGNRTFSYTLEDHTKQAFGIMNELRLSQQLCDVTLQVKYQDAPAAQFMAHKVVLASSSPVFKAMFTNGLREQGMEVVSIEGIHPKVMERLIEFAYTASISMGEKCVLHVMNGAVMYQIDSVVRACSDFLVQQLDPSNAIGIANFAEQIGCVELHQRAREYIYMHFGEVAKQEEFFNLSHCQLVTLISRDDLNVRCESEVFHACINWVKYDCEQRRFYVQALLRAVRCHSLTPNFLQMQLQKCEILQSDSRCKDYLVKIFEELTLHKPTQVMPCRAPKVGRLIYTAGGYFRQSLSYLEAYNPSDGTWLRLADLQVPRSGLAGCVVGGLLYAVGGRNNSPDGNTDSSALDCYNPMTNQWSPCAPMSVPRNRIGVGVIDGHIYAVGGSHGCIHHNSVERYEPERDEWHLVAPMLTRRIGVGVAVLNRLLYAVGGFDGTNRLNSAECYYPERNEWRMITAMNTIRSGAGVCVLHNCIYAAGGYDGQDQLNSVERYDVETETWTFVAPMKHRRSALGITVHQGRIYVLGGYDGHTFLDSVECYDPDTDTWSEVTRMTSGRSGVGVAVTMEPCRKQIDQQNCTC
UniProt Q15172, sequence (whole entry, looked up): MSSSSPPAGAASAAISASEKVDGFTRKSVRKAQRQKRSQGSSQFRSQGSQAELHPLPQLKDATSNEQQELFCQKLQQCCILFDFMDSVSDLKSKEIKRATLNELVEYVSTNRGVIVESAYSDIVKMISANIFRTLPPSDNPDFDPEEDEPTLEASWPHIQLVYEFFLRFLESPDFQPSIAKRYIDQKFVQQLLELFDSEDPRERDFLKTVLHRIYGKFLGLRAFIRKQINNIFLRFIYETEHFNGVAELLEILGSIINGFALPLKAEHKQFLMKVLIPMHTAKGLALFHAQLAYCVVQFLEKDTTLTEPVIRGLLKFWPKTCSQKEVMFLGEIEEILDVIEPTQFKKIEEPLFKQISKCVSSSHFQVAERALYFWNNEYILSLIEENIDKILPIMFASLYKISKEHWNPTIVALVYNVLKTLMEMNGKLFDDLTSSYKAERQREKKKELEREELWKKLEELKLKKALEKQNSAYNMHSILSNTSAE
UniProt Q9H7M9, sequence (whole entry, looked up): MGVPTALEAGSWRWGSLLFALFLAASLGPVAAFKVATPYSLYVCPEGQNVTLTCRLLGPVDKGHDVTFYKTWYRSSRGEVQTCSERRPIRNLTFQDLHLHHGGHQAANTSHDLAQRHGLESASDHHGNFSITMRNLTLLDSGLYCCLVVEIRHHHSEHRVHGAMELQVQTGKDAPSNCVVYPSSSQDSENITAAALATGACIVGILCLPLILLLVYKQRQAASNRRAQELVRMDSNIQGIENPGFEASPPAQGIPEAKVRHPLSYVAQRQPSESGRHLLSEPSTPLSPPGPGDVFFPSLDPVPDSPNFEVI
UniProt P52003, sequence (whole entry, looked up): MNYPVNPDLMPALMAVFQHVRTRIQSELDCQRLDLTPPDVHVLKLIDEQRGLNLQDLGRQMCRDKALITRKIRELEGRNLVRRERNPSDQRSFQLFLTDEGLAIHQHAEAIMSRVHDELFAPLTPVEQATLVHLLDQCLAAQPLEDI

CC(C)C[C@H](NC(=O)[C@H](CCCNC(=N)N)NC(=O)[C@H](CC(C)C)NC(=O)[C@H](CO)NC(=S)Nc1ccc2c(c1)C(=O)OC21c2ccc(O)cc2Oc2cc(O)ccc21)C(=O)N[C@@H](CCCCN)C(=O)N[C@@H](CS)C(=O)NCC(=O)N[C@@H](CCP(=O)(O)O)C(=O)NCC(=O)N1CCC[C@H]1C(=O)N[C@H](C(=O)N[C@@H](Cc1c[nH]c2ccccc12)C(=O)N[C@@H](CC(C)C)C(=O)N[C@H](C(=O)N1CCC[C@H]1C(=O)N[C@@H](CCCNC(=N)N)C(=O)O)C(C)C)C(C)C
Kd (SFN (Homo sapiens, UniProt P31947); binding, fluorescence anisotropy; pH 7.5, FITC-labelled phosphopeptide titration): 88.5 µM

CC(C)C[C@H](NC(=O)[C@H](C)NC(=O)[C@H](C)NC(=O)[C@H](CC(=O)O)NC(=O)[C@H](CC(=O)O)NC(=O)[C@H](C)NC(=O)[C@@H]1CCCN1C(=O)[C@H](CCCCN)NC(=O)CNC(=O)[C@@H]1CCCN1C(=O)[C@@H]1CCCN1C(=O)[C@@H]1CCCN1C(=O)[C@H](CCC(=O)O)NC(=O)CN)C(=O)N[C@H](C(=O)O)C(C)C
Kd (F-box only protein 22; binding, SPR): 20.5 µM

CC[C@H](C)[C@H](NC(=O)[C@@H]1CCCN1C(=O)[C@H](CO)NC(=O)[C@H](CC(C)C)NC(=O)CNC(=O)[C@H](CO)NC(=O)[C@H](Cc1ccccc1)NC(=O)[C@H](Cc1ccccc1)NC(=O)[C@H](CO)NC(=O)[C@@H](N)[C@@H](C)O)C(=O)N[C@@H](CCC(=O)O)C(=O)N[C@@H](CCC(=O)O)C(=O)N[C@@H](CC(=O)O)C(=O)N[C@@H](C)C(=O)N[C@@H](Cc1c[nH]cn1)C(=O)O
Kd (Serine/threonine-protein phosphatase 2A 56 kDa regulatory subunit alpha isoform (Homo sapiens, UniProt Q15172); binding, bead-based Langmuir fit; pH 7.5): 0.24 µM

CC(=O)N[C@@H](CCCNC(=N)N)C(=O)N[C@H](C(=O)N1CCC[C@H]1C(=O)N[C@@H](COP(=O)(O)O)C(=O)N[C@@H](CC(C)C)C(=O)N1CCC[C@H]1C(=O)NCC(=O)N1CCC[C@H]1C(c1ccccc1)c1ccccc1)[C@@H](C)O
Kd (YWHAZ; isothermal titration calorimetry; first duplicate): 5.62 ± 0.5 µM

CC=C1CN2CCc3c([nH]c4ccccc34)C2CC1C(=COC)C(=O)OC (stereo not drawn)
Kd (PRDX3 (Homo sapiens, UniProt P30048); binding, surface plasmon resonance): 21.7 ± 0.46 µM

CC[C@H](C)[C@@H]1NC(=O)[C@@H]2CCCN2C(=O)[C@H](Cc2c[nH]c3ccccc23)NC(=O)[C@H](CO)NC(=O)[C@H](Cc2c[nH]c3ccccc23)NC(=O)[C@H](CC(N)=O)NC(=O)[C@H](CCCCN)NC(=O)[C@H](CCSC)NC(=O)[C@@H]2CSCCC(=O)N3CN(CN(C3)C(=O)CCSC[C@H](NC(=O)[C@H](C)N)C(=O)N3CCC[C@H]3C(=O)N[C@@H](Cc3ccccc3)C(=O)NCC(=O)N2)C(=O)CCSC[C@@H](C(=O)N[C@H](C(=O)N[C@@H](CC(N)=O)C(=O)N[C@@H](CCCCN)C(=O)N(C)CC(=O)N(C)CC(=O)N(C)CC(=O)N(C)CC(=O)N(C)CC(=O)N(C)CC(=O)N[C@@H](CCCCNC(=O)c2ccc(C(=O)O)c(-c3c4ccc(=O)cc-4oc4cc(O)ccc34)c2)C(N)=O)[C@@H](C)O)NC(=O)[C@H](Cc2c[nH]c3ccccc23)NC1=O
Kd (Cell adhesion molecule 4 (CADM4, Homo sapiens, UniProt Q8NFZ8); fluorescence polarization): > 2 µM

NC(=O)c1ccc(N)nc1
Kd (Nicotinamide N-methyltransferase, SAM-bound (NNMT, Homo sapiens, UniProt P40261); substrate, SPR; 20 °C, added: SAM): 3.98 µM

O=C(N[C@@H]1c2ccccc2C[C@H]1N1CCCC1)c1ccc(-c2ccnc3[nH]ccc23)nc1
Kd (PRKACB (Homo sapiens, UniProt P22694); binding, competition with immobilised ligand): 0.0048 µM

CC[C@H](C)[C@@H]1NC(=O)[C@H](CO)NC(=O)[C@H](CCC(N)=O)NC(=O)[C@@H](NC(=O)CN)CSSC[C@@H]2NC(=O)CNC(=O)[C@H](C)NC(=O)[C@H](CC(C)C)NC(=O)[C@@H]3CSSC[C@@H](C(=O)NCC(=O)O)NC(=O)[C@H](Cc4ccccc4)NC(=O)CNC(=O)[C@H](CC(N)=O)NC(=O)[C@@H]4CCCN4C(=O)CNC(=O)[C@H](CSSC[C@H](NC(=O)[C@H](CCCNC(=N)N)NC(=O)[C@H](CCC(N)=O)NC(=O)[C@H](CCCNC(=N)N)NC(=O)[C@H](CCCCN)NC(=O)[C@H](C(C)C)NC(=O)[C@H](CCCNC(=N)N)NC(=O)[C@H](CC(N)=O)NC1=O)C(=O)N[C@@H](CCCCN)C(=O)N[C@@H](CCC(N)=O)C(=O)N[C@@H](CC(=O)O)C(=O)N[C@@H](CO)C(=O)N[C@@H](CC(=O)O)C(=O)N3)NC(=O)[C@H](C(C)C)NC2=O
Kd (LRP6 E1 domain; binding, SPR; pH 7.5): 0.0272 µM

CC(C)C[C@H](NC(=O)[C@H](Cc1c[nH]c2ccccc12)NC(=O)CNC(=O)[C@H](Cc1ccccc1)NC(=O)[C@H](CO)NC(=O)[C@H](Cc1c[nH]c2ccccc12)NC(=O)[C@H](Cc1c[nH]c2ccccc12)NC(=O)[C@@H]1CCCN1C(=O)[C@@H](N)C(C)C)C(=O)N[C@@H](Cc1c[nH]cn1)C(=O)N[C@@H](C)C(=O)N1CCC[C@H]1C(=O)O
Kd (V-type immunoglobulin domain-containing suppressor of T-cell activation, IgV domain (VSIR, Homo sapiens, UniProt Q9H7M9); binding, microscale thermophoresis): 39 µM

CC(=O)N[C@@H](CCCNC(=N)N)C(=O)N[C@H](C(=O)N1CCC[C@H]1C(=O)N[C@@H](COP(=O)(O)O)C(=O)N[C@@H](CC(C)C)C(=O)N1CCC[C@H]1C(=O)N[C@H](C)C(=O)N1CCC[C@H]1C(c1ccccc1)c1ccccc1)[C@@H](C)O
Kd (YWHAZ; isothermal titration calorimetry): 4.95 ± 1.16 µM

CC(C)C[C@H](NC(=O)CNC(=O)[C@H](C)NC(=O)[C@H](CC(=O)O)NC(=O)[C@H](C)NC(=O)[C@H](C)NC(=O)[C@@H]1CCCN1C(=O)[C@H](CCCCN)NC(=O)CNC(=O)[C@@H]1CCCN1C(=O)[C@@H]1CCCN1C(=O)[C@@H]1CCCN1C(=O)[C@H](CCC(=O)O)NC(=O)CN)C(=O)N[C@H](C(=O)O)C(C)C
Kd (F-box only protein 22; binding, SPR): 11 µM

Cn1c2cccc(=O)c-2nc2ccccc21
Kd (Multidrug resistance operon repressor (mexR, Pseudomonas aeruginosa, UniProt P52003); binding, microscale thermophoresis; wild-type protein): 10.6 µM

CC(C)C[C@@H]1NC(=O)[C@@H]2CSSC[C@@H](C(=O)NCC(=O)O)NC(=O)[C@H](Cc3ccccc3)NC(=O)CNC(=O)[C@H](CC(N)=O)NC(=O)[C@@H]3CCCN3C(=O)CNC(=O)[C@@H]3CSSC[C@H](NC(=O)[C@H](CCCNC(=N)N)NC(=O)[C@@H]4CCCN4C(=O)[C@H](Cc4c[nH]cn4)NC(=O)[C@H](CCCCN)NC(=O)[C@H](C(C)C)NC(=O)[C@H](CCCNC(=N)N)NC(=O)[C@H](CC(N)=O)NC(=O)[C@@H]4CCCN4C(=O)[C@H](CO)NC(=O)[C@H](CCC(N)=O)NC(=O)[C@@H](NC(=O)CN)CSSC[C@H](NC(=O)CNC(=O)[C@H](C)NC1=O)C(=O)N[C@@H](C(C)C)C(=O)N3)C(=O)N[C@@H](CCCCN)C(=O)N[C@@H](CCC(N)=O)C(=O)N[C@@H](CC(=O)O)C(=O)N[C@@H](CO)C(=O)N[C@@H](CC(=O)O)C(=O)N2
Kd (LRP6 E1 domain; binding, SPR; pH 7.5): 0.647 µM

CSCC[C@H](NC=O)C(=O)N[C@@H](CCCNC(=N)N)C(=O)N[C@H](C(=O)NCC(=O)N[C@@H](CC(N)=O)C(=O)N[C@@H](C)C(=O)N[C@@H](CC(N)=O)C(=O)NCC(=O)NCC(=O)N[C@@H](CCCCNC(=S)Nc1ccc2c(c1)C(=O)OC21c2ccc(O)cc2Oc2cc(O)ccc21)C(=O)O)[C@@H](C)O
Kd (Uncharacterized protein YejA (yejA, Escherichia coli, UniProt P33913, T508A); binding, fluorescence polarisation; YejA variant T490A): 85.5 ± 19.7 µM

CC1CC(=O)N[C@@H](CC(=O)O)C(=O)N2CC(F)C(F)[C@H]2C(=O)N[C@@H](CCC(=O)O)C(=O)N[C@@H]([C@@H](C)O)C(=O)NCC(=O)N[C@@H](CCC(=O)O)C(=O)N1 (stereo partly drawn)
Kd (KEAP1 (Homo sapiens, UniProt Q14145); binding, MST): 0.0409 µM

CC[C@@H](C)[C@@H](NC(=O)[C@@H](CCC(N)=O)NC(=O)[C@H](NC(=O)[C@H]1CCCN1C(=O)[C@H](NC(=O)[C@@H](CO)NC(=O)[C@@H](Cc1ccccc1)NC(=O)[C@H]1CCCN1C(=O)[C@@H](CCC(N)=O)NC(=O)[C@H](N)CCSC)[C@H](C)CC)C(C)C)C(=O)N[C@@H](C(=O)N[C@H](CC(C)C)C(=O)N[C@H](CCC(N)=O)C(=O)NCC(=O)N[C@H](CO)C(=O)N[C@H](CCCNC(=N)N)C(=O)N[C@H](CCCNC(=N)N)C(=O)N[C@H](CCCNC(=N)N)C(=O)N[C@H](CCC(N)=O)C(=O)NCC(=O)N[C@H](CCCNC(=N)N)C(N)=O)[C@H](C)O
Kd (Kcnma1 (Mus musculus, UniProt Q08460); ion current, blocker, inside-out patch clamp; Xenopus oocytes; +140 mV, added: 10 µM cytosolic Ca2+): 2.4 µM

COCC[C@H](NC(=O)[C@H](CCC(=O)O)NC(=O)[C@H](CCCNC(=N)N)NC(=O)[C@H](C)NC(=O)[C@H](Cc1c[nH]c2ccccc12)NC(=O)[C@H](CCC(=O)O)NC(=O)[C@H](CCC(=O)O)NC(=O)[C@H](CCC(=O)O)NC(C)=O)C(=O)NCC(=O)N[C@@H](C)C(=O)N[C@@H](CCC(N)=O)C(=O)N[C@@H](CC(C)C)C(=O)N[C@@H](CCCNC(=N)N)C(=O)N[C@@H](CCCNC(=N)N)C(=O)N[C@@H](C)C(=O)N[C@@H](C)C(=O)N[C@@H](CC(=O)O)C(=O)N[C@@H](CC(=O)O)C(=O)N[C@@H](CC(C)C)C(=O)N[C@@H](CC(N)=O)C(=O)N[C@@H](C)C(=O)N[C@@H](CCC(N)=O)C(=O)N[C@@H](Cc1ccc(O)cc1)C(=O)N[C@@H](CCC(=O)O)C(=O)N[C@@H](CCCNC(=N)N)C(=O)N[C@@H](CCCNC(=N)N)C(=O)N[C@@H](CCCNC(=N)N)C(N)=O
Kd (Induced myeloid leukemia cell differentiation protein Mcl-1 homolog, residues 152-308 (Mus musculus, UniProt P97287); binding, SPR; 0.2% DMSO): 0.037 µM
